Assay results pooled from the literature.
Protocols differ between the studies behind these lines.

Cc1ccc(NC(C)(C)C(=O)Nc2ccc(F)c(Cl)c2)cc1S(=O)(=O)N1CC2CC1CO2 (stereo not drawn)  kinetic solubility (water): 143 µM
CCc1c(C(=O)Nc2ccc3c(c2)CN(C2CCC(=O)NC2=O)C3=O)[nH]c2c(CN)cccc12 (stereo not drawn)  kinetic solubility (PBS; 18 h, pH 7.4): 3.7 µM
Cc1cc(N2CCC(CO)(C3CC3)C2=O)cc(C(=O)NCc2cc(F)cc(-c3cnn(C)c3)c2)n1 (stereo not drawn)  kinetic solubility (nephelometry; aqueous buffer; 30 min, pH 6.5): 3.1 to 6.3 µg/mL
Cc1ccc(NCC(=O)Nc2nccs2)cc1S(=O)(=O)N1CCOCC1  kinetic solubility (water): > 250 µM
COc1cncc(-c2cc(F)cc(CNC(=O)c3cc(N4CC[C@@](C#N)(C5CC5)C4=O)cc(C)n3)c2)c1  kinetic solubility (nephelometry; aqueous buffer; 30 min, pH 6.5): < 1.6 µg/mL
Cc1ccc(NCC(=O)Nc2cccc(Cl)c2)cc1S(=O)(=O)N1CCOCC1  kinetic solubility (water): 219 µM
C[C@@H]1CC[C@@H]([C@@](O)(CNCc2cccc(F)c2)COCc2ccccc2)[C@H](OCc2ccccc2)C1  kinetic solubility (PBS; 2 h, pH 7.4): 31.8 µM
CCN(c1nc(N[C@H](CC(N)=O)C(=O)NC)nc(N2CCN(c3ccccc3C#N)CC2)n1)C1CCCCC1  kinetic solubility (PBS; pH 7.4): 246 µM
COc1cccc(CNC[C@@](O)(COCc2ccccc2)[C@@H]2CC[C@@H](C)C[C@H]2OCc2ccccc2)c1  kinetic solubility (PBS; 2 h, pH 7.4): 68.4 µM
CC[C@@H](C)[C@@H]1NC(=O)[C@@H](Cc2ccccc2)NC(=O)[C@@H]2CCCN2C(=O)[C@H]([C@H](C)CC)NC(=O)[C@@H](Cc2ccccc2)NC(=O)[C@@H]2CCCN2C1=O  kinetic solubility (aqueous buffer): ≥ 254 µg/mL
COc1ccc(CNC[C@@](O)(COCc2ccc(OC)cc2)[C@@H]2CC[C@@H](C)C[C@H]2OCc2ccc(OC)cc2)cc1  kinetic solubility (PBS; 2 h, pH 7.4): 117 µM
CCOC(=O)C12CC(N)(C1)C2  kinetic solubility (PBS; pH 7.4): 319 µM
COc1ccc(CNC[C@@](O)(COCc2ccccc2)[C@@H]2CC[C@@H](C)C[C@H]2OCc2ccccc2)cc1  kinetic solubility (PBS; 2 h, pH 7.4): 6.1 µM
Cc1ccc(NCC(=O)Nc2ccc(F)c(Cl)c2)cc1S(=O)(=O)N1CC2CC1CO2 (stereo not drawn)  kinetic solubility (water): 219 µM
CC1=C[C@@H](C)[C@H]2[C@@H]3C(=O)C(Cl)(Cl)C(=O)[C@H](C)C(=O)O[C@@H](C)/C=C/C=C\[C@@H](C)[C@@H]3C=C[C@@H]2C1  kinetic solubility (PBS; 90 min, pH 7.4): 0.073 µM
